Measurements from different studies.
Parts stem from different laboratories: compare values within a part only.
UniProt Q16659, sequence (whole entry, looked up): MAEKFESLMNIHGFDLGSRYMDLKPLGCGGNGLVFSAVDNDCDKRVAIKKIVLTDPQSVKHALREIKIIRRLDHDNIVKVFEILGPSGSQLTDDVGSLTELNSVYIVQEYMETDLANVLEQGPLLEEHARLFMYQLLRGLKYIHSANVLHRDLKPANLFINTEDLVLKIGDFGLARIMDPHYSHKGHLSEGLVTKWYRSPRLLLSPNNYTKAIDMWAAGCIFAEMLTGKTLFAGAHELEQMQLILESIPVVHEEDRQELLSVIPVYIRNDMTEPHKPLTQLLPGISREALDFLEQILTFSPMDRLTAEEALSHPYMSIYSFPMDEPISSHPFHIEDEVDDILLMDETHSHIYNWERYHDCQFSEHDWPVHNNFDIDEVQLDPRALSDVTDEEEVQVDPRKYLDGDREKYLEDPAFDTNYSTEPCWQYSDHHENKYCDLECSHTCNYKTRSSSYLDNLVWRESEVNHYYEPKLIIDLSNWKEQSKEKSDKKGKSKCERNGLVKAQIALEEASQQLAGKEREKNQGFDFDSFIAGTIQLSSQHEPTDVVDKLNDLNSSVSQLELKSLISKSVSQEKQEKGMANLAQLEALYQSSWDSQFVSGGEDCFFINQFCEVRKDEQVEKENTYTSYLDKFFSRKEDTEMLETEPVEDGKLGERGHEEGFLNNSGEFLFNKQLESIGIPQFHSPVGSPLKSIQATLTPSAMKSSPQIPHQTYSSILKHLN
UniProt Q08345, sequence (whole entry, looked up): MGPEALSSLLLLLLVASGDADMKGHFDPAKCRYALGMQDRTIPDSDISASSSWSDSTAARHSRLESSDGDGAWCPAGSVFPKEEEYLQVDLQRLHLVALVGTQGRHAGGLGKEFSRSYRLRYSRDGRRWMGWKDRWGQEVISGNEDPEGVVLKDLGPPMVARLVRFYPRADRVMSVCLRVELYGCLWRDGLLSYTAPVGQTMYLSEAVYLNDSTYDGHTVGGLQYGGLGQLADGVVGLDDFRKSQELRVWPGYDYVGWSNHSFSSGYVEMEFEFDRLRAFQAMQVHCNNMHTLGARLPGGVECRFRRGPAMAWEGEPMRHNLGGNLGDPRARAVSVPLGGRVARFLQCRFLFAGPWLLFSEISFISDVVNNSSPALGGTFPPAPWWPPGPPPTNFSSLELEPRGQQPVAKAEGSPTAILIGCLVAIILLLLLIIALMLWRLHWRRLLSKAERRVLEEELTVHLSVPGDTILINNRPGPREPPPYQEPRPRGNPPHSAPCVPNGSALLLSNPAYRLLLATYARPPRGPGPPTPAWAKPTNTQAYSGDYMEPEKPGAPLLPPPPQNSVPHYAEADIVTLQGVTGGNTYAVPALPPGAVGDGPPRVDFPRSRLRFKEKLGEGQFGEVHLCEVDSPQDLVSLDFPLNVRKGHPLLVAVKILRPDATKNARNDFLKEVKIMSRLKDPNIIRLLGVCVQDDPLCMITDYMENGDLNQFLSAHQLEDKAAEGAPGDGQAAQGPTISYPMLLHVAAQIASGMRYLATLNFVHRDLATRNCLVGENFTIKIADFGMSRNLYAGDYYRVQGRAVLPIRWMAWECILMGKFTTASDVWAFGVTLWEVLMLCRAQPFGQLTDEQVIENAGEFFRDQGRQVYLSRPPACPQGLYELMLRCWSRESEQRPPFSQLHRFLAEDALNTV
UniProt Q07912, sequence (whole entry, looked up): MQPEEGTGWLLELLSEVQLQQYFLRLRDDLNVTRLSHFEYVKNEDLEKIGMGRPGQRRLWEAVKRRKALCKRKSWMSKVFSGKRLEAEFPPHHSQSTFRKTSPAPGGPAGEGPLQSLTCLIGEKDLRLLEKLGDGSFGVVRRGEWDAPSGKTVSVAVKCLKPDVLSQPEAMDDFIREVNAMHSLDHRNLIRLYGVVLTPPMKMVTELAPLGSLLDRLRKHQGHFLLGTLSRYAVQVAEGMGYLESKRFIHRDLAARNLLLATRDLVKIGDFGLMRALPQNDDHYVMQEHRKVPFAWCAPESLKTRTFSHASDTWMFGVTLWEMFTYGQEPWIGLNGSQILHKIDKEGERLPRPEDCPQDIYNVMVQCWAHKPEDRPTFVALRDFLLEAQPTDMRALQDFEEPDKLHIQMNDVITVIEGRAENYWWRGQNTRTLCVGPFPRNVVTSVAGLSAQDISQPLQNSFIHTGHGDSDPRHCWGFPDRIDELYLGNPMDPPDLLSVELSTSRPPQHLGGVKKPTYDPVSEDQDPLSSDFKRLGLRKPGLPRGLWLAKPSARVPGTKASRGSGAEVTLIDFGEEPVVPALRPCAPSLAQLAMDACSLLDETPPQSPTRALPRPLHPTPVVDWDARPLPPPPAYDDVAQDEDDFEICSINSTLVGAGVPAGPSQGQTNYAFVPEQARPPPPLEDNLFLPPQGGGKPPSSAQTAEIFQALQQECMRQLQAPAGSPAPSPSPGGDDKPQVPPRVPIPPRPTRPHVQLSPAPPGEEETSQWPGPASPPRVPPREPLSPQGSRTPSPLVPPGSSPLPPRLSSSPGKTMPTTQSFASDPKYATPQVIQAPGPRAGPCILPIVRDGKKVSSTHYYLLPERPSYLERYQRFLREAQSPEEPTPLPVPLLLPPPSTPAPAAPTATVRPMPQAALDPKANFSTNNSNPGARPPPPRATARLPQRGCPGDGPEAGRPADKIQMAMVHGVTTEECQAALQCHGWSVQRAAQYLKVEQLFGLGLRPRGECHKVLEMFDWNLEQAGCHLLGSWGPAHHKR
UniProt P53350, sequence (whole entry, looked up): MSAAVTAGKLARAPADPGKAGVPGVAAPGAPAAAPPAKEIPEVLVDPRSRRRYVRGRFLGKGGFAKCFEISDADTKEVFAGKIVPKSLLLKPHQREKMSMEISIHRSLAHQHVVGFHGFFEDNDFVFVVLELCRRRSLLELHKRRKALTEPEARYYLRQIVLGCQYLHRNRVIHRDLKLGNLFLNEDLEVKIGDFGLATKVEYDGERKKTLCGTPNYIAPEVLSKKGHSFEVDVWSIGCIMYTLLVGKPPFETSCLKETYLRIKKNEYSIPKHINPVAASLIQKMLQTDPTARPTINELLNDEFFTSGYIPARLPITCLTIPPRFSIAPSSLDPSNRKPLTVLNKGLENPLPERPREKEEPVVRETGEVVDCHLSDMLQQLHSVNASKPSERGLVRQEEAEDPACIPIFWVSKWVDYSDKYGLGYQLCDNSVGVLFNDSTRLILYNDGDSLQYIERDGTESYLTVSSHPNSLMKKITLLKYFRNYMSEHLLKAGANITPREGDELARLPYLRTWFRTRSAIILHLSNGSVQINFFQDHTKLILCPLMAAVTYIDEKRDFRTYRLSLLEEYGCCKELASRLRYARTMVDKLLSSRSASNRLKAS
UniProt Q6XUX3, sequence (whole entry, looked up): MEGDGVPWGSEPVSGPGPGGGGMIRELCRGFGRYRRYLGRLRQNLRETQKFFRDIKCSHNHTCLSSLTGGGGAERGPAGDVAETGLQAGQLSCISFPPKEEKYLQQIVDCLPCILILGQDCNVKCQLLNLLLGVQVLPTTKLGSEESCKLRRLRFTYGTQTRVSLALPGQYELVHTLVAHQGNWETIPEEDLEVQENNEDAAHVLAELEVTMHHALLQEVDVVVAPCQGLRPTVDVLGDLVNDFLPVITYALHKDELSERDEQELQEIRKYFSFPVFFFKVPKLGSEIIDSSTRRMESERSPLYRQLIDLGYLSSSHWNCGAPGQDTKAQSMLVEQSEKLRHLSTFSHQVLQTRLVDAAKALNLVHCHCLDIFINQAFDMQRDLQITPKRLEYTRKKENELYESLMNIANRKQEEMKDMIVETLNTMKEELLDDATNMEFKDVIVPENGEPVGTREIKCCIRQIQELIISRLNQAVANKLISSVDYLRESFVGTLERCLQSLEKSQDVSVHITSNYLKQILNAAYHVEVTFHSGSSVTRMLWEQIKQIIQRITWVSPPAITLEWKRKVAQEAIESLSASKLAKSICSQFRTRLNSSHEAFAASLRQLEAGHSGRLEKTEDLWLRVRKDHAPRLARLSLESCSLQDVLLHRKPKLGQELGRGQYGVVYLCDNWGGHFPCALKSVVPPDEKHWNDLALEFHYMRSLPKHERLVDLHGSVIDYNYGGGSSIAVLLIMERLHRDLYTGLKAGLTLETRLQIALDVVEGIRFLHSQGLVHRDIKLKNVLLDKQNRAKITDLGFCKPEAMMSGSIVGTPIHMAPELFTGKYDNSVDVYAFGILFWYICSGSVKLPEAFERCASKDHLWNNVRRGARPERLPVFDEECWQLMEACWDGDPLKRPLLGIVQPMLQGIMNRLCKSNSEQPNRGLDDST
UniProt O15075, sequence (whole entry, looked up): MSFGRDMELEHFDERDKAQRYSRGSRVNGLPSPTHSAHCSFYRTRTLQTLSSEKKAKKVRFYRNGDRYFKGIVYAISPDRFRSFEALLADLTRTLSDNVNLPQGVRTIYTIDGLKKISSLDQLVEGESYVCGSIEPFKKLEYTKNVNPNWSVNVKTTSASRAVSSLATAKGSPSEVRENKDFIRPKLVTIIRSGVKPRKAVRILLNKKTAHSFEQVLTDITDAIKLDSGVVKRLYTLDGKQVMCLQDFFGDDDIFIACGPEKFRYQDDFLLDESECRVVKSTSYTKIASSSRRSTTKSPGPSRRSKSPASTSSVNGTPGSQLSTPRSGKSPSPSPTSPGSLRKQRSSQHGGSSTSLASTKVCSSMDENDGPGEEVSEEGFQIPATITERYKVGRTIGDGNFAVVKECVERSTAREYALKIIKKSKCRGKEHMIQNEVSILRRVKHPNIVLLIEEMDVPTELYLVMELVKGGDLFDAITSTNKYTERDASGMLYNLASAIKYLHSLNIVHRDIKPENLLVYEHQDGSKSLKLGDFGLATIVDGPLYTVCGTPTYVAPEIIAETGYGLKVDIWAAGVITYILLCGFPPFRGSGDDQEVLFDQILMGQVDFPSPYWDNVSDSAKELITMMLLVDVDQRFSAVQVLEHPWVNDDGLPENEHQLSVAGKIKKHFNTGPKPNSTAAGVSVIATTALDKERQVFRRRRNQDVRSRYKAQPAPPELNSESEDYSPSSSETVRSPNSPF

Set 1
SMILES: O=C1NC(=O)c2c1c1c3ccccc3[nH]c1c1[nH]c3cc(Br)ccc3c21
Observed: enzyme activity
Action: inhibitor
Tested at: 0.5 µM
Reference: control
For Mitogen-activated protein kinase kinase kinase kinase 5 (MAP4K5, Homo sapiens, UniProt Q9Y4K4): remaining activity read 42.3%.
For Receptor-interacting serine/threonine-protein kinase 2 (RIPK2, Homo sapiens, UniProt O43353): remaining activity read 99.6%.
It gave 68.4% for remaining activity (Serine/threonine-protein kinase TAO1 (TAOK1, Homo sapiens, UniProt Q7L7X3)).
Dual specificity tyrosine-phosphorylation-regulated kinase 2 (DYRK2, Homo sapiens, UniProt Q92630) — remaining activity: 70.5%.
For Dual serine/threonine and tyrosine protein kinase (DSTYK, Homo sapiens, UniProt Q6XUX3): remaining activity read 65.6%.
It gave 82.6% for remaining activity (Platelet-derived growth factor receptor beta (PDGFRB, Homo sapiens, UniProt P09619)).
The remaining activity was 98.4% (Fibroblast growth factor receptor 2 (FGFR2, Homo sapiens, UniProt P21802)).
The remaining activity was 92.3% (Serine/threonine-protein kinase VRK1 (VRK1, Homo sapiens, UniProt Q99986)).
Serine/threonine-protein kinase Sgk3 (SGK3, Homo sapiens, UniProt Q96BR1) — remaining activity: 97.2%.
For Serine/threonine-protein kinase D3 (PRKD3, Homo sapiens, UniProt O94806): remaining activity read 49.5%.
The remaining activity was 99.2% (Serine/threonine-protein kinase ULK1 (ULK1, Homo sapiens, UniProt O75385)).
Activin receptor type-1 (ACVR1, Homo sapiens, UniProt Q04771) — remaining activity: 127%.
Tyrosine-protein kinase HCK (HCK, Homo sapiens, UniProt P08631) — remaining activity: 92.4%.
The remaining activity was 68.1% (BDNF/NT-3 growth factors receptor (NTRK2, Homo sapiens, UniProt Q16620)).
Phosphorylase b kinase gamma catalytic chain, liver/testis isoform (PHKG2, Homo sapiens, UniProt P15735) — remaining activity: 94.8%.
The remaining activity was 97.4% (Activated CDC42 kinase 1 (TNK2, Homo sapiens, UniProt Q07912)).
It gave 91.2% for remaining activity (Serine/threonine-protein kinase PLK1 (PLK1, Homo sapiens, UniProt P53350)).
Insulin receptor-related protein (INSRR, Homo sapiens, UniProt P14616) — remaining activity: 85.8%.
Mitogen-activated protein kinase kinase kinase 9 (MAP3K9, Homo sapiens, UniProt P80192) — remaining activity: 7.57%.

Set 2
Cell line: HaCaT
Tested at: 100 µM
Time: 18 h
`OC[C@H]1O[C@H](OC[C@H]2O[C@H](OC[C@H]3O[C@H](O[C@]4(CO)O[C@H](CO)[C@@H](O)[C@@H]4O)[C@H](O)[C@@H](O)[C@@H]3O)[C@H](O)[C@@H](O)[C@H]2O)[C@H](O)[C@@H](O)[C@H]1O` gave a viability of 87%.
`CCOC(=O)n1ccn(C)c1=S` gave a viability of 108%.
With `CC[C@@]1(O)C(=O)OCc2c1cc1n(c2=O)Cc2cc3c(CN(C)C)c(O)ccc3nc2-1` the viability was 75.2%.
With `O=C1CC[C@@H](C(=O)N2CSC[C@H]2C(=O)O)N1` the viability was 99.9%.
The viability of `O=C(O)COC(=O)Cc1ccccc1Nc1c(Cl)cccc1Cl` is reported as 94.5%.
For `O=C(O)c1ccccc1O`, the viability was 114%.
With `CN1CCc2nc(C(=O)N[C@@H]3C[C@@H](C(=O)N(C)C)CC[C@@H]3NC(=O)C(=O)Nc3ccc(Cl)cn3)sc2C1` the viability was 103%.
`Nc1c(CC(=O)O)cccc1C(=O)c1ccc(Br)cc1` gave a viability of 107%.
`CN(C)[C@@H]1C(O)=C(C(N)=O)C(=O)[C@@]2(O)C(O)=C3C(=O)c4c(O)ccc(Cl)c4[C@@](C)(O)[C@H]3C[C@@H]12` has a viability of 92.9%.
`CNCCCC1c2ccccc2C=Cc2ccccc21` gave a viability of 14.6%.
The viability of `O=C(O)c1cc(=O)[nH]c(=O)[nH]1` is reported as 112%.
The viability of `COc1ccc(O)cc1` is reported as 119%.
With `COc1cc(C(=O)N2CCOCC2)cc(OC)c1OC` the viability was 115%.
`CCN(CC)CCOCCOC(=O)C1(c2ccccc2)CCCC1` has a viability of 107%.
The viability of `CCCNS(=O)(=O)Nc1ncnc(OCCOc2ncc(Br)cn2)c1-c1ccc(Br)cc1` is reported as 84.3%.

Set 3
Organism: Sarcocystis neurona
Observed: parasite growth
Tested at: 10 µM
Time: 96 h
`NC(=O)c1cccnc1` gave an inhibition of -0.753%.
With `CO[C@H]1/C=C/O[C@@]2(C)Oc3c(C)c(O)c4c(O)c(c(/C=N/N5CCN(C6CCCC6)CC5)c(O)c4c3C2=O)NC(=O)/C(C)=C\C=C\[C@H](C)[C@H](O)[C@@H](C)[C@@H](O)[C@@H](C)[C@H](OC(C)=O)[C@@H]1C` the inhibition was -0.5%.
`Cc1ccc(NC(=O)c2ccc(CN3CCN(C)CC3)cc2)cc1Nc1nccc(-c2cccnc2)n1` has an inhibition of -16.6%.
The inhibition of `CC[N+](C)(C)c1cccc(O)c1` is reported as -17.5%.
With `Nc1nc2c(ncn2CCC(CO)CO)c(=O)[nH]1` the inhibition was -14.9%.
For `NS(=O)(=O)c1cc2c(cc1Cl)N=CNS2(=O)=O`, the inhibition was -4.8%.
The inhibition of `CC12CC3CC(C)(C1)CC(N)(C3)C2` is reported as -11.8%.
`CC1=NS(=O)(=O)c2cc(Cl)ccc2N1` gave an inhibition of -9.4%.
`CN(CCOc1ccc(NS(C)(=O)=O)cc1)CCc1ccc(NS(C)(=O)=O)cc1` has an inhibition of -10.1%.
`CN(C)CC[C@@H](c1ccc(Cl)cc1)c1ccccn1` has an inhibition of -14.5%.
With `Nc1nc2c(ncn2COCCO)c(=O)[nH]1` the inhibition was -8.8%.
The inhibition of `CCN1CCCC1CNC(=O)c1cc(S(=O)(=O)CC)c(N)cc1OC` (stereo not drawn) is reported as -4.1%.

Set 4
Structure (SMILES): CCC(=O)N[C@H]1CC[C@@H](C(=O)N(C)c2ccc(-c3nc4ccccc4o3)cc2)C1
Observed: cell-free assay
Technique: competition with immobilised ligand
Tested at: 1 µM
It gave 100% for remaining binding (Epithelial discoidin domain-containing receptor 1 (DDR1, Homo sapiens, UniProt Q08345)).
The remaining binding was 100% (Serine/threonine-protein kinase DCLK1 (DCLK1, Homo sapiens, UniProt O15075)).
For Tyrosine-protein kinase receptor UFO (AXL, Homo sapiens, UniProt P30530): remaining binding read 87%.
It gave 95% for remaining binding (Calcium/calmodulin-dependent protein kinase type 1 (CAMK1, Homo sapiens, UniProt Q14012)).
For Calcium/calmodulin-dependent protein kinase type 1B (PNCK, Homo sapiens, UniProt Q6P2M8): remaining binding read 92%.
It gave 100% for remaining binding (RAF proto-oncogene serine/threonine-protein kinase (RAF1, Homo sapiens, UniProt P04049)).
The remaining binding was 100% (Mitogen-activated protein kinase 6 (MAPK6, Homo sapiens, UniProt Q16659)).
Tyrosine-protein kinase Lyn (LYN, Homo sapiens, UniProt P07948) — remaining binding: 100%.
The remaining binding was 100% (Cyclin-G-associated kinase (GAK, Homo sapiens, UniProt O14976)).
The remaining binding was 100% (Cytoplasmic tyrosine-protein kinase BMX (BMX, Homo sapiens, UniProt P51813)).
Serine/threonine-protein kinase TNNI3K (TNNI3K, Homo sapiens, UniProt Q59H18) — remaining binding: 100%.
It gave 100% for remaining binding (Ephrin type-A receptor 2 (EPHA2, Homo sapiens, UniProt P29317)).
It gave 100% for remaining binding (Ephrin type-B receptor 6 (EPHB6, Homo sapiens, UniProt O15197)).
Leukocyte tyrosine kinase receptor (LTK, Homo sapiens, UniProt P29376) — remaining binding: 100%.
For Mitogen-activated protein kinase kinase kinase 14 (MAP3K14, Homo sapiens, UniProt Q99558): remaining binding read 92%.
High affinity nerve growth factor receptor (NTRK1, Homo sapiens, UniProt P04629) — remaining binding: 75%.
For Dual specificity tyrosine-phosphorylation-regulated kinase 1A (DYRK1A, Homo sapiens, UniProt Q13627): remaining binding read 63%.
It gave 89% for remaining binding (TGF-beta receptor type-2 (TGFBR2, Homo sapiens, UniProt P37173)).
Tyrosine-protein kinase JAK2, JH1 (JAK2, Homo sapiens, UniProt O60674) — remaining binding: 70%.
The remaining binding was 71% (Leucine-rich repeat serine/threonine-protein kinase 2 (LRRK2, Homo sapiens, UniProt Q5S007)).

Some of these lines once more (set 4):
Tyrosine-protein kinase JAK2, JH1 (JAK2, Homo sapiens, UniProt O60674) — remaining binding: 70%.
The remaining binding was 100% (Mitogen-activated protein kinase 6 (MAPK6, Homo sapiens, UniProt Q16659)).
The remaining binding was 100% (Cytoplasmic tyrosine-protein kinase BMX (BMX, Homo sapiens, UniProt P51813)).
The remaining binding was 100% (Cyclin-G-associated kinase (GAK, Homo sapiens, UniProt O14976)).
For Dual specificity tyrosine-phosphorylation-regulated kinase 1A (DYRK1A, Homo sapiens, UniProt Q13627): remaining binding read 63%.
It gave 95% for remaining binding (Calcium/calmodulin-dependent protein kinase type 1 (CAMK1, Homo sapiens, UniProt Q14012)).
It gave 100% for remaining binding (Ephrin type-A receptor 2 (EPHA2, Homo sapiens, UniProt P29317)).
It gave 100% for remaining binding (Epithelial discoidin domain-containing receptor 1 (DDR1, Homo sapiens, UniProt Q08345)).
Leukocyte tyrosine kinase receptor (LTK, Homo sapiens, UniProt P29376) — remaining binding: 100%.
For Mitogen-activated protein kinase kinase kinase 14 (MAP3K14, Homo sapiens, UniProt Q99558): remaining binding read 92%.
